Experimental data collected from several papers.
Compare with care: the assays were run in different laboratories. ± marks the error that the study gave.
PARP1: Poly [ADP-ribose] polymerase 1 (PARP1, Homo sapiens, UniProt P09874)
Sequence of UniProt P09874 (whole entry, looked up): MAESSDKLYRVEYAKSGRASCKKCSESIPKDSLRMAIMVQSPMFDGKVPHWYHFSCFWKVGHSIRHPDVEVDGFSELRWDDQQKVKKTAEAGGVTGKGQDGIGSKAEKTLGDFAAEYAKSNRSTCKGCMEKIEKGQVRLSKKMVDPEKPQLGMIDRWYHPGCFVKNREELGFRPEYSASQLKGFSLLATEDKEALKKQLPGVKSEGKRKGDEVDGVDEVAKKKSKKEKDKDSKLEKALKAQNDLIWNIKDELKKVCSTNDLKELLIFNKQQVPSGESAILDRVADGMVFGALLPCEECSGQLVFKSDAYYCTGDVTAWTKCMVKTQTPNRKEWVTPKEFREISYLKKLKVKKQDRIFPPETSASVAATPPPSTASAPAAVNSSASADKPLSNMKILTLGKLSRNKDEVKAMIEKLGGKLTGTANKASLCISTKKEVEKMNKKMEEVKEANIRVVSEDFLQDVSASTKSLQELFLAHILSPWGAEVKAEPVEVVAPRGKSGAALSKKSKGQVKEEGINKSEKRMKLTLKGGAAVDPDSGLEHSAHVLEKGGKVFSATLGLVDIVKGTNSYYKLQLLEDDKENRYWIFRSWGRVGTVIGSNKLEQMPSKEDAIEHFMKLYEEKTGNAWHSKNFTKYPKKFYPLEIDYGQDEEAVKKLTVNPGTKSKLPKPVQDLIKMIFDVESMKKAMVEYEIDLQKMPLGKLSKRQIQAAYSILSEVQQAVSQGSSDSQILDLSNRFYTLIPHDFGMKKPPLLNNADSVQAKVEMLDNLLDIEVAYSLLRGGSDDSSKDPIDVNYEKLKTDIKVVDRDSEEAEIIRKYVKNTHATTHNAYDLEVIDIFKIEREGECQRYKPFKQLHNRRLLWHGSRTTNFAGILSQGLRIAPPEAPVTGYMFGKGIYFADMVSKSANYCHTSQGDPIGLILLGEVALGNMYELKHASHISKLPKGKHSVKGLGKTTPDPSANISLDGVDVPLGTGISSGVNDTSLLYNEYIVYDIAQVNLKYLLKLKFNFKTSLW
CDK17: Cyclin-dependent kinase 17 (CDK17, Homo sapiens, UniProt Q00537)
Sequence of UniProt O00311 (whole entry, looked up): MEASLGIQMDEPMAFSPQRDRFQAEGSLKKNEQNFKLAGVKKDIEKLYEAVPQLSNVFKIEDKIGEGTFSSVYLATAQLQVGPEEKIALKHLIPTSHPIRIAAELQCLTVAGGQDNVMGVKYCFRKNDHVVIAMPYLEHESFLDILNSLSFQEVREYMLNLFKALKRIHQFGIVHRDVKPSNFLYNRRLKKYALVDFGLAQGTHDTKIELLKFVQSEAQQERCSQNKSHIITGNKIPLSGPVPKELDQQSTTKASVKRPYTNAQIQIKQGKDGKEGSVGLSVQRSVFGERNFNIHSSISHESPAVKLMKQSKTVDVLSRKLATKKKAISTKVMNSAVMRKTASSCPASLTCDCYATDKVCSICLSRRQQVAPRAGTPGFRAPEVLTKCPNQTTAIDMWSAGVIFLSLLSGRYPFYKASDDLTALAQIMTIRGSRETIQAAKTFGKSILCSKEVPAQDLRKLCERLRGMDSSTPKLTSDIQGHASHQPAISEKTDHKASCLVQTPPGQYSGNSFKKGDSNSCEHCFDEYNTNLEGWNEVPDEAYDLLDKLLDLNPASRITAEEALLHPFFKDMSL
Sequence of UniProt Q00537 (whole entry, looked up): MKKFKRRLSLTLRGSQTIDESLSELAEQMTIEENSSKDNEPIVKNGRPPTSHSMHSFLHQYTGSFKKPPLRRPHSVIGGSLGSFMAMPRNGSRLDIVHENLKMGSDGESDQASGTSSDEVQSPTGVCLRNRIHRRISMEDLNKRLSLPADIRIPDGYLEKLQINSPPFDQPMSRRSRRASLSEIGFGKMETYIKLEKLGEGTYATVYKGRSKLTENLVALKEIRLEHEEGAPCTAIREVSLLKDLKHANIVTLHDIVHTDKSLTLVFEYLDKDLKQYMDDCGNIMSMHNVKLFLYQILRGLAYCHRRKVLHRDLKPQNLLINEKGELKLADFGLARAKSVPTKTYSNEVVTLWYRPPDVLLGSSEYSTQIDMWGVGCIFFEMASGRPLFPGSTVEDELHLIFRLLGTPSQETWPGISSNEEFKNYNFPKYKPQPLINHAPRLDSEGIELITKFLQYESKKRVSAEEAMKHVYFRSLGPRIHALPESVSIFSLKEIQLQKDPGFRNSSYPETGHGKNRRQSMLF
Sequence of UniProt P28072 (whole entry, looked up): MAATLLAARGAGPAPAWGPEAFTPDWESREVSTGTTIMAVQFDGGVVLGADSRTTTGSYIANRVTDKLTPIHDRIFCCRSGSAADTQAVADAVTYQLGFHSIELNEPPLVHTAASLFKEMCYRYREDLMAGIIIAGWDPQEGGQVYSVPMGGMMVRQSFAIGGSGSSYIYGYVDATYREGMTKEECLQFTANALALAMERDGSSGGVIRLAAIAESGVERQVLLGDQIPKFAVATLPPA
Sequence of UniProt Q8NEB9 (whole entry, looked up): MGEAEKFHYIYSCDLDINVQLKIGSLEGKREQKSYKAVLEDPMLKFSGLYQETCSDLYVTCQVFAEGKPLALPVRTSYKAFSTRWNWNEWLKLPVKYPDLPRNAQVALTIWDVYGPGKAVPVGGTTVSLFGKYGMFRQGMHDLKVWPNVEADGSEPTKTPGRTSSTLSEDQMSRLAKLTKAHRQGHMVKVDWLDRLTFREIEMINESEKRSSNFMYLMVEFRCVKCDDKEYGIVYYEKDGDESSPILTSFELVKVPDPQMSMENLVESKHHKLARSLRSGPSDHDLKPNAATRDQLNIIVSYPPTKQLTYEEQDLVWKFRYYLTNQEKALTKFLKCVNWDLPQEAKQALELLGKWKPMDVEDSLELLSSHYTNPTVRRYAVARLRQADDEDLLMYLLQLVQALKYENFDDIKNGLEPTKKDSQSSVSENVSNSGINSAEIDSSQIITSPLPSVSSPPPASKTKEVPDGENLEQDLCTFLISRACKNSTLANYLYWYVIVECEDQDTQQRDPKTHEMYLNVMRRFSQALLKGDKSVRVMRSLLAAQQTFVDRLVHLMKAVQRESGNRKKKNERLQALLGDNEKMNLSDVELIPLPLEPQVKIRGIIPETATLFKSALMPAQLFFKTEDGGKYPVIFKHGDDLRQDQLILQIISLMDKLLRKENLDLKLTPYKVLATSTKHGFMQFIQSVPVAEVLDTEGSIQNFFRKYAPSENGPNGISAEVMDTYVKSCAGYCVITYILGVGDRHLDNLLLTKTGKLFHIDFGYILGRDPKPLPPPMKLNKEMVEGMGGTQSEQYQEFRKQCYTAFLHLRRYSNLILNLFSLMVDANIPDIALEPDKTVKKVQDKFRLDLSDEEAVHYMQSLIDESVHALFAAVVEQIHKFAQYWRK
Sequence of UniProt O60733 (whole entry, looked up): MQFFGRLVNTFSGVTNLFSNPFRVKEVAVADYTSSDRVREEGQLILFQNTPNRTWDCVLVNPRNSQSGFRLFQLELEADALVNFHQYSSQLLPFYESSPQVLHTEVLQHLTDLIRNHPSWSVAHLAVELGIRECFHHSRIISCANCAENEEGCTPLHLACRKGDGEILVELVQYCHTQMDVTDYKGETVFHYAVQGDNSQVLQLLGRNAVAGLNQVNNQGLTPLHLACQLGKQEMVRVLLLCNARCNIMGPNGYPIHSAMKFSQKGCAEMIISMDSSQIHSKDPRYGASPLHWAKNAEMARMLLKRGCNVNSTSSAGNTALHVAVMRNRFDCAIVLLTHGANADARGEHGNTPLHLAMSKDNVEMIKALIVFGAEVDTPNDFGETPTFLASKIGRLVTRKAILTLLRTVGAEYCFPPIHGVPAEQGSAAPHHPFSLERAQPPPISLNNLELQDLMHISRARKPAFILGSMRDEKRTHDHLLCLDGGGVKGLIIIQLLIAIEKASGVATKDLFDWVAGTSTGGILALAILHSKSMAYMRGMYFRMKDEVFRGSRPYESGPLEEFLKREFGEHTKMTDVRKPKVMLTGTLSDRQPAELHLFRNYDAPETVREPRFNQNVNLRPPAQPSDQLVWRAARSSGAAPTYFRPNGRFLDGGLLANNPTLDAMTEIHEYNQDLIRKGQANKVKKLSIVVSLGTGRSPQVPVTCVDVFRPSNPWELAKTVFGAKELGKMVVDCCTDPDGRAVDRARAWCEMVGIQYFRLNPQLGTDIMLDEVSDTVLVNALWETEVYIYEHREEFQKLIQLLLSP
Sequence of UniProt P57771 (whole entry, looked up): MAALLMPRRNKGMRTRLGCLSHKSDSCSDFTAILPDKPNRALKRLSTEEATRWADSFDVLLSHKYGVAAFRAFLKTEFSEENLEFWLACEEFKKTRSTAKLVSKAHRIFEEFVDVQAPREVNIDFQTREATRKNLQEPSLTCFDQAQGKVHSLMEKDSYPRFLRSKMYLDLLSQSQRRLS
Sequence of UniProt Q9UBY5 (whole entry, looked up): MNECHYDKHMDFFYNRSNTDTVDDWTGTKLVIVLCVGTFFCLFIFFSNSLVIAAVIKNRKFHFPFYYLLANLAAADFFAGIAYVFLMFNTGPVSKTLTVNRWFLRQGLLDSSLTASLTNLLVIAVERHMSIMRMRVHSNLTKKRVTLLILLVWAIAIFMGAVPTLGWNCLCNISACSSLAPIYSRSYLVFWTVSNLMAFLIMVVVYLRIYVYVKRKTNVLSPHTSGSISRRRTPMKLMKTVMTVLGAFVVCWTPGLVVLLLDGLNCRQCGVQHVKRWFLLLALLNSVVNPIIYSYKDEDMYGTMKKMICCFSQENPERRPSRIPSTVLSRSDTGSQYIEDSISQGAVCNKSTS

Substance	tested on	test	test system	conditions	how to read	endpoint	result
O=C(O)CCC(=O)N1CCN(c2ccc(Nc3ncc(C(=O)Nc4c(F)cccc4Cl)c(NCC4CCCO4)n3)cc2)CC1 (stereo not shown)	Activated CDC42 kinase 1, Tyr284 phosphorylation (TNK2, Homo sapiens, UniProt Q07912)	Tyr284 autophosphorylation, inhibitor, immunoblotting	LAPC4	5 µM, 16 h, together with: EGF	negative means increased phosphorylation	inhibition	74.5%
O=C1CCNC(=O)c2cc(Cl)c(Cl)cc21	PARP1	enzyme activity, inhibitor		10 µM		inhibition	0%
Cc1c(Nc2nccc3cc(CN4CC[C@@H](O)C4)cnc23)cccc1-c1cccc(-c2nc3cc(CN4CC[C@@H](C(=O)O)C4)cc(C#N)c3o2)c1C	CD274 (Homo sapiens, UniProt Q9NZQ7)	unoccupied cell-surface PD-L1	BALB/c nu/nu mice, MDA-MB-231 xenograft, tumour	150 mg/kg single dose, 24 h		inhibition	78%
CC(C)[C@H](NC(=O)[C@@H]1CCCN1C(=O)[C@H](CCCNC(=N)N)NC(=O)[C@H](CS)NC(=O)[C@H](Cc1c[nH]c2ccccc12)NC(=O)[C@H](CCCNC(=N)N)NC(=O)[C@@H](Cc1ccccc1)NC(=O)[C@H](Cc1c[nH]cn1)NC(=O)[C@H](CCC(=O)O)NC(=O)[C@H](CS)NC(=O)[C@H](CS)NC(=O)[C@H](CCCCN)NC(=O)[C@@H]1CC(=O)N[C@@H](CCCNC(=N)N)C(=O)N[C@@H](C)C(=O)N[C@@H](CC(=O)O)C(=O)N[C@H](Cc2ccc(O)cc2)C(=O)N1)C(N)=O [technetium-99m labelled]			C57 mice, skin	intravenous, 0.037 MBq, 24 h		tissue uptake	0.26 ± 0.15 %ID/g
Cc1cc(NC(=O)c2cccc(NC(=O)/C=C/CN(C)C)c2)ccc1Nc1nccc(-c2cccnc2)n1	PIK3C3 (Homo sapiens, UniProt Q8NEB9)	ATP-biotin probe labeling, KiNativ	A-375	1 µM, 3 h, first of two sites		inhibition	18.1%
CC12CCC(CC1)C(C)(C)O2	odorant receptor 32, with Orco (Culex quinquefasciatus, UniProt A0A0K0KUF8)	ion current, inverse agonist, two-electrode voltage clamp	Xenopus oocytes	100 µM, pH 7.6, together with: 100 µM methyl salicylate		inhibition	31 ± 7.6%
CC(C)(C)c1cnc(CSc2cnc(NC(=O)C3CCN(CC(=O)NCCOCCOCCOCCNc4cccc5c4C(=O)N(C4CCC(=O)NC4=O)C5=O)CC3)s2)o1 (stereo not shown)	CDK17	probe labeling, KiNativ live-cell profiling	MOLT-4 CRBN knockout	0.25 µM		inhibition	23.7%
Cc1ccc(-n2sc(=O)n(Cc3ccc(F)cc3)c2=O)cc1	Regulator of G-protein signaling 8 (Homo sapiens, UniProt P57771)	Gα binding, irreversible inhibitor, FCPIA after washing		20 µM, early time points, together with: Gαo		inhibition	~20%
Cc1ccc(Oc2ccc3c(c2)C(=O)N(CC(=O)O)C3=O)cc1	LPAR3 (Homo sapiens, UniProt Q9UBY5)	calcium signal, antagonist		10 µM		inhibition	> 50%
CC(C)(C)c1cnc(CSc2cnc(NC(=O)C3CCNCC3)s2)o1	CDK17	probe labeling, KiNativ live-cell profiling	MOLT-4	0.25 µM		inhibition	70.9%
CCCC1OC(=O)C1CCCCc1ccccc1 (stereo not shown)	PLA2G6 (Homo sapiens, UniProt O60733)	enzyme activity, radioactive mixed micelle		0.091 mole fraction, diastereomer mixture		inhibition	97 to 100%
C=CC(=O)N1CCN(c2nc(OC[C@@H]3CCCN3C)nc3c(F)c(-c4nc(N)cc(C)c4C(F)(F)F)c(Cl)cc23)[C@@H](C)C1	GTPase KRas, with RAF1 RBD (KRAS, Homo sapiens, UniProt P01116, G12C)		MIA PaCa-2	1 µM		inhibition	20%
COc1ccccc1C1CC(c2ccc(F)cc2O)=NN1c1ccc(S(N)(=O)=O)cc1 (stereo not shown)	CA9 (Homo sapiens, UniProt Q16790)	enzyme activity, inhibitor		1 mM		inhibition	27%
CN(C)c1ccc(C(=C2C=CC(=[N+](C)C)C=C2)c2ccc(N(C)C)cc2)cc1	Cell division cycle 7-related protein kinase, with DBF4 (CDC7, Homo sapiens, UniProt O00311)	kinase activity, scintillation proximity		10 µM, 1% DMSO, together with: Dbf4		inhibition	> 30%
C[C@@]12OC(=O)[C@]1([C@@H](O)[C@@H]1C=CCCC1)NC(=O)[C@@H]2CCCl	PSMB6 (Homo sapiens, UniProt P28072)	caspase-like proteasome activity	CB-17 SCID mice, MM1.S xenograft, tumour	intravenous, 0.15 mg/kg single, 24 h		inhibition	49%
O=C1NCC(c2ccccc2)C(O)c2ccccc21 (racemic)	PARP1	enzyme activity, inhibitor, chemiluminescent		10 µM		inhibition	~3%
CN(C)C/C=C/C(=O)Nc1cccc(C(=O)Nc2ccc(Nc3nccc(-c4c(-c5ccccc5)nn5ccccc45)n3)cc2)c1	PRKDC (Homo sapiens, UniProt P78527)	ATP-biotin probe labeling, KiNativ	A-375	1 µM, 3 h, first of two sites		inhibition	23.3%
c1ccc2c(c1)CCCn1nnnc1-2	PARP1	enzyme activity, inhibitor		10 µM		inhibition	0%
lepirudin	Prothrombin, thrombin form (Mus musculus, UniProt P19221)	thrombin proteolysis	50% mouse serum	0.5 mg/mL, 20 min, 37 °C		inhibition	> 90%
